Experimental data from different studies.
± gives the spread as reported.

`CCCC[C@@H]1NC(=O)[C@@H](NC(=O)[C@H](CCC(=O)O)NC(=O)CNC(=O)CN2CCN(CC(=O)O)CCN(CC(=O)O)CCN(CC(=O)O)CC2)CCCCNC(=O)C[C@@H](C(N)=O)NC(=O)[C@H](C(C)C)NC(=O)[C@@H]2CCCN2C(=O)[C@H](CCCNC(=N)N)NC(=O)CNC(=O)[C@H](Cc2c[nH]c3ccccc23)NC(=O)[C@H](CCCNC(=N)N)NC(=O)[C@@H](Cc2ccccc2)NC(=O)[C@H](Cc2c[nH]cn2)NC(=O)[C@H](CCC(=O)O)NC1=O` [gallium-67 labelled] gave a tissue uptake of 0.09 ± 0.01 %ID/g (C57 mice, B16/F1 flank melanoma, pancreas; intravenous, 2 h, together with: blocking peptide 10 µg).
With `NC12CNCCNCC(NCc3ccc(CNC(=O)CCCC(=O)NCc4ccc(-c5nncnn5)cc4)cc3)(CNCCNC1)CNCCNC2.[64Cu+2]` the tissue uptake was 1.55 ± 0.45 %ID/g (athymic nude mice SW1222 xenograft, lung; 4 h post injection, 24 h accumulation interval, together with: huA33-TCO pretargeting).
`O=C([O-])CN1CCN(CC(=O)[O-])CCN(CC(=O)NCCc2ccc3c(c2)C2C=CCC2C(c2cc4c(cc2Br)OCO4)N3)CCN(CC(=O)[O-])CC1.[111In+3]` (centres unmarked) has a tissue uptake of 1.58 ± 0.41 %ID/g (mice with Hec50 tumour xenograft, Hec50 tumour; 1 h).
For `N=C(N)NCCC[C@H](NC(=O)CON=C[C@H](F)[C@@H](O)[C@H](O)[C@H](O)CO)C(=O)NCC(=O)N[C@@H](CC(=O)O)C(=O)O` [fluorine-18 labelled], the tissue ratio was 3.5 ± 1.9 (nude mice, U-87 MG xenograft; intravenous, 2 h; reference: tumour over muscle).
With `O=C([O-])c1cccc(CN(CCN(Cc2cn(Cc3ccccc3)nn2)Cc2cccc(C(=O)[O-])n2)Cc2cn(Cc3ccccc3)nn2)n1.[64Cu+2]` the tissue uptake was 6.39 %ID/g (healthy athymic nude mice, lung; intravenous, 1 h).
`CCCC[C@H](NC(=O)CNC(=O)CNC(=O)CN1CCN(CC(=O)O)CCN(CC(=O)O)CCN(CC(=O)O)CC1)C(=O)N[C@H]1CC(=O)NCCCC[C@@H](C(N)=O)NC(=O)[C@H](Cc2c[nH]c3ccccc23)NC(=O)[C@H](CCCNC(=N)N)NC(=O)[C@@H](Cc2ccccc2)NC(=O)[C@H](Cc2c[nH]cn2)NC1=O` [gallium-67 labelled] has a tissue uptake of 25.5 ± 2.22 %ID/g (female C57 mice, B16/F1 melanoma, tumor; intravenous, 0.037 MBq, 2 h).
With `O=C([O-])CN1CCN(CC(=O)[O-])CCN(CC(=O)[O-])CCN(CC(=O)[O-])CC1.[64Cu+2]` the tissue uptake was 2.77 %ID/g (healthy athymic nude mice, blood; intravenous, 15 min).
`CC(C)[C@H](NC(=O)[C@@H]1CCCN1C(=O)[C@H](CCCNC(=N)N)NC(=O)[C@H](CS)NC(=O)[C@H](Cc1c[nH]c2ccccc12)NC(=O)[C@H](CCCNC(=N)N)NC(=O)[C@@H](Cc1ccccc1)NC(=O)[C@H](Cc1c[nH]cn1)NC(=O)[C@H](CCC(=O)O)NC(=O)[C@H](CS)NC(=O)[C@H](CS)NC(=O)[C@@H]1CC(=O)N[C@@H](CCCNC(=N)N)C(=O)NCC(=O)N[C@@H](CC(=O)O)C(=O)N[C@H](Cc2ccc(O)cc2)C(=O)N1)C(N)=O` [technetium-99m labelled] has a tissue uptake of 1.35 ± 0.24 %ID (C57 mice B16/F1 melanoma female, intestines; iv, 0.037 MBq, 4 h).

For quick reference, copied from above:
`CCCC[C@H](NC(=O)CNC(=O)CNC(=O)CN1CCN(CC(=O)O)CCN(CC(=O)O)CCN(CC(=O)O)CC1)C(=O)N[C@H]1CC(=O)NCCCC[C@@H](C(N)=O)NC(=O)[C@H](Cc2c[nH]c3ccccc23)NC(=O)[C@H](CCCNC(=N)N)NC(=O)[C@@H](Cc2ccccc2)NC(=O)[C@H](Cc2c[nH]cn2)NC1=O` [gallium-67 labelled] has a tissue uptake of 25.5 ± 2.22 %ID/g (female C57 mice, B16/F1 melanoma, tumor; intravenous, 0.037 MBq, 2 h).
